# Assay results of several laboratories.
# A part holds a random share of what one study measured.

# Sample 1 — technique: RNAcompete; form: RNA; medium: in vitro; tested at: 20 nM; notes: 7-mer, probes averaged, single round; relative to: mean of 7-mers; direction: higher = stronger binding
# Target: PABPC1L2, full length, GST fusion (mouse, UniProt A0ABA7IW68)
# Residues (chain): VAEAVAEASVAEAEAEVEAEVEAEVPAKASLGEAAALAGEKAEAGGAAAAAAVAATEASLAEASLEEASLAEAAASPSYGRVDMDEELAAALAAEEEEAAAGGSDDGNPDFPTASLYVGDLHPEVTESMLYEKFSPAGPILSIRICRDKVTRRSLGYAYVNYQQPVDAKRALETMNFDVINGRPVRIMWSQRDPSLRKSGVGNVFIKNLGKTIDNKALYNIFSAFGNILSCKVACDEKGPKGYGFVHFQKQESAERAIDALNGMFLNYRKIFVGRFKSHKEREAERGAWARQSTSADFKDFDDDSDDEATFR
Sequence,7-mer Z-score
ACGGUCA,-0.0192
AUCAGAA,0.242
UUCGUCA,-0.45
CGUAGUG,-0.237
GUCCCCC,-0.316
AGUUAUU,-0.206
UACAGGG,0.14
AUUUGCG,-0.391
GACAAUU,0.00436
GUGCCAU,-0.151
AAGCCGG,0.0968
ACUCAAA,0.539
GGAGUUC,-0.164
CAGGGUA,0.0569
UUAUGGG,0.0859
UAGUUUU,-0.519
UUCCUGG,-0.311
UGGUGUG,-0.179
AUCCUGA,-0.228
CAAAACA,4.21
AACCUGA,0.0805
GACCCUG,-0.258

# Sample 2 — technique: RNA Bind-n-Seq; form: RNA; medium: in vitro; tested at: 1 µM; notes: whole 134-nt RNA, ends assumed; with: 150 mM KCl; relative to: input library; direction: higher = stronger binding
# Target: Ras GTPase-activating protein-binding protein 1, C-terminal RGG region (G3BP1, Homo sapiens, UniProt Q13283)
# UniProt Q13283, sequence (whole entry, looked up): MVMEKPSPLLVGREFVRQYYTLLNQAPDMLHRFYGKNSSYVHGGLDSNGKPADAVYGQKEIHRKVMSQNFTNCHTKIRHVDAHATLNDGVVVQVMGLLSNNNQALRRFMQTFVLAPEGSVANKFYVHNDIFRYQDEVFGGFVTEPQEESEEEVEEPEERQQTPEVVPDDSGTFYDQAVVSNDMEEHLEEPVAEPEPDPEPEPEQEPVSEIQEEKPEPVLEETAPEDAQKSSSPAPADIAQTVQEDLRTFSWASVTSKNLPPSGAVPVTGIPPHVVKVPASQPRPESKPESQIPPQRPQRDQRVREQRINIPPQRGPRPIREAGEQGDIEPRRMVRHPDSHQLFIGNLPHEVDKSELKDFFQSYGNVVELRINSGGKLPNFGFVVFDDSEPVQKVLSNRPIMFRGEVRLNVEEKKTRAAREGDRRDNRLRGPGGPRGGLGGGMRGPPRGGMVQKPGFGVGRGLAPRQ
# Constant ends, left off below: GGGAGUUCUACAGUCCGACGAUC … UGGAAUUCUCGGGUGUCAAGG
Sequence,log2 enrichment
UAACUUUAGAGGAGGAUCUGAUGGAUCUGGCAGUGGACGUGGAUUUGGGGAUGGCUAUAAUGGGUAUGGAGGAGGACCUGGAGGUGGCAA,-1.49
UCCUGUGCUACACAUCGUAUGUACCGAAUCGGGGAAAGGGGAAAAAGGGGAAAAAGGGGAAAGUAUUAUGUUACGCCGUUCGGAUCUGCA,1.84
ACCAUGCAGGUGCGCAUCUUUGGGAAGUGGGGCAAGGGGGGGAUAGGGAGGGGGGUAACACUUUGGGAACAGGUGGUCCCAGGUCGUUUC,-1.49
ACCAUGAAGGUGGGCAUCUUUGGGAAGUGGGGCAAGGGGGGGAUAGGGAGGGGGGUAACACUUUGGGAACAGGUGGUCCCAGGUCGUUUC,-1.26
GUCCUGUGCUACACAUCGUAUGUACCGAAUCGGGGUUUUUGGGGAAAGGGGAAAGGGGAAAGUAUUAUGUUACGCCGUUCGGAUCUGCAC,3.68
CUCAAGUCCUGUGCUACACAUCGUAUGUACCGAAUCGGUUGGGGUUGGGUUGGAAAGUAUUAUGUUACGCCGUUCGGAUCUGCACUUCCA,-0.676
AGUCCUGUGCUACACAUCGUAUGUACCGAAUCGGGGUUUUGGGUUUUGGGUUUUGGGGAAAGUAUUAUGUUACGCCGUUCGGAUCUGCAC,1.16
GCAGGAAGAAAAAACAAAUGGAAAUGCUUCGGAUAGUGGCAGGGGUGGGGGUUGCUAAGGAAAGGGUGGGAUGGGAGUGGGUAAAGAGUU,2.49
UGUGCUACACAUCGUAUGUACCGAAUCGGGGAAAAAAAGGGGUUUUUGGGGUUUUUUUGGGGAAAGUAUUAUGUUACGCCGUUCGGAUCU,0.48

# Sample 3 — technique: protein binding microarray; form: double-stranded DNA, one strand shown; medium: in vitro; tested at: not given; relative to: not given; direction: higher = stronger binding
# Target: Histone acetyltransferase KAT6A, both winged helices, GST fusion (KAT6A, Homo sapiens, UniProt Q92794, residues 1-181)
# Notes: 8-mer, flanks averaged, mean of 2 arrays, mostly near background
# Construct (chain): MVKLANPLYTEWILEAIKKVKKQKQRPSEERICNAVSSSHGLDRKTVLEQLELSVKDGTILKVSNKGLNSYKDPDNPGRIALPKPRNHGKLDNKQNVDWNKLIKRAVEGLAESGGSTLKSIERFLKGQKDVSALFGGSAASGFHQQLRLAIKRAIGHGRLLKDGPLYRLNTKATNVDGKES
Sequence,E-score
ATCATCAC,-0.067
AGACCTTC,0.00817
ACTAAAGT,-0.237
ATGTTTGC,-0.0747
GAGCGGTA,0.217
ATGCGAAC,-0.00174
AGGGCTAG,-0.11
GTGTTGTA,-0.0661
CACAGAAC,-0.0419
ATTAAAAT,-0.0201
ACCGCACC,0.166
AGGGGAGG,-0.235
AGCTACAT,-0.244
GACTACAC,-0.0185
ACGCTTGC,0.122
AGCGCTCC,0.253

# Sample 4 — technique: protein-binding microarray; form: double-stranded DNA, one strand shown; medium: in vitro; tested at: 2200 nM top; notes: 60-bp whole probe; with: salmon DNA 0.4 mg/ml; relative to: random background probes; direction: higher = stronger binding; constant ends, left off below: GCCTAGCAC … GTCTTGATTCGCTTGACGCTGCTG
# Target: Interferon regulatory factor 7, full length, phosphomimetic (IRF7, Homo sapiens, UniProt Q92985, residues 1-503, S471D/S472D/S475D/S476D/S477D/S483D/S484D/S487D)
# Residues (chain): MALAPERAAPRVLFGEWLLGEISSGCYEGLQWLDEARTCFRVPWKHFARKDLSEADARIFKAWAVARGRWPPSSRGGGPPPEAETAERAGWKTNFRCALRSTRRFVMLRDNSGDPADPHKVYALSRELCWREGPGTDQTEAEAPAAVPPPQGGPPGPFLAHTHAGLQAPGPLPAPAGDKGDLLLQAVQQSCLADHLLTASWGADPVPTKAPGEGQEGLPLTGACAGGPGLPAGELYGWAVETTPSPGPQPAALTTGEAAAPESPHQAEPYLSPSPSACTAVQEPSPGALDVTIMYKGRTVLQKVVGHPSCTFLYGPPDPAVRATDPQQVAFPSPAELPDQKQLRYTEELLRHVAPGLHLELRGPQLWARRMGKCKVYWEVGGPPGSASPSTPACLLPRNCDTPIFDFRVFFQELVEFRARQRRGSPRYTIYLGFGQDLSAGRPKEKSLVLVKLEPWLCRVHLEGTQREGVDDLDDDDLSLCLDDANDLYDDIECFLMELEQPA
Sequence,fitted relative affinity
GACGGTTTCTTTATCCTGACGTGCTAG,2.26 z-score
TTAGGACTGGGTATTGGTTAGTGCTAG,-0.33 z-score
TTAGATTTCAGTTTCGATAAGTGCTAG,4.57 z-score
CTGCATTTTTTTTTTCTACTGTGCTAG,1.56 z-score
TTAGATATCTGTTTCGATTAGTGCTAG,3.55 z-score
GACGGTATCGACTTACGGGACGTGCTA,0.617 z-score
CACGGTTTCGGTATCGGGACGTGCTAG,8.19 z-score
TCACTTTCAGTTTTCCTACTGTGCTAG,9.9 z-score
TCATGTTTGATAATTTTACTGTGCTAG,0.974 z-score
CACGGTTTCGGACTGGGGACGTGCTAG,3.74 z-score
GACGATATCAGACTGGTGACGTGCTAG,0.224 z-score
TCACATTTATTTACTCTCACTGTGCTA,1.6 z-score
CTAGGTATCGGGTATCGGTTAGTGCTA,0.538 z-score
TTAGGTTTCAGTCTCGGTTAGTGCTAG,2.19 z-score
TTAGGTCTCGGTCTGGGTTAGTGCTAG,0.372 z-score
TTAGGTTTGCTTATCCTTTAGTGCTAG,1.13 z-score
TCATTTTTCCCTATTATACTGTGCTAG,3.32 z-score
TTAGATCCCAGTATCGATTAGTGCTAG,0.861 z-score
TCAAAGTTCATGTTCAAACTGTGCTAG,0.0805 z-score

# A few entries again (sample 4):
Sequence,fitted relative affinity
GACGGTATCGACTTACGGGACGTGCTA,0.617 z-score
CACGGTTTCGGTATCGGGACGTGCTAG,8.19 z-score
TCACTTTCAGTTTTCCTACTGTGCTAG,9.9 z-score
TCATGTTTGATAATTTTACTGTGCTAG,0.974 z-score
CACGGTTTCGGACTGGGGACGTGCTAG,3.74 z-score
GACGATATCAGACTGGTGACGTGCTAG,0.224 z-score
TCACATTTATTTACTCTCACTGTGCTA,1.6 z-score
CTAGGTATCGGGTATCGGTTAGTGCTA,0.538 z-score
TTAGGTTTCAGTCTCGGTTAGTGCTAG,2.19 z-score
